Published values from different studies.
Each numbered part is a random draw from the data of one study; scales do not carry over between parts.

Block 1 — technique: protein binding microarray; form: double-stranded DNA, one strand shown; medium: in vitro; concentration: not given; baseline: not given; direction: higher = stronger binding
Target: Histone acetyltransferase KAT6A, winged helix 2, GST fusion (KAT6A, Homo sapiens, UniProt Q92794, residues 85-181)
Setting: 8-mer, flanks averaged, mean of 2 arrays, mostly near background
Construct (chain): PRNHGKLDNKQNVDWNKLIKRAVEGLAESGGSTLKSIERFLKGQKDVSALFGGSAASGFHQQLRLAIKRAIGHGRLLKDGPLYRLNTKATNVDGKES
With `TCCAAAGA` the E-score was 0.0392.
The E-score of `ATATCACC` is reported as -0.0194.
With `AGAGGGGA` the E-score was -0.0141.
With `ACTTGTGG` the E-score was -0.0687.
`CCTAACGC` gave an E-score of 0.0295.
`AAGCCGCT` has an E-score of 0.0966.
The E-score of `AAGCTAGT` is reported as -0.0195.
For `ACTTGTTG`, the E-score was -0.149.
`GCTGAAGA` gave an E-score of -0.0352.
For `ATCCTTAA`, the E-score was -0.12.
With `AATGCATC` the E-score was -0.0578.
`GCTTTTAA` has an E-score of -0.00822.
The E-score of `CCGCACGC` is reported as 0.192.
For `TAGTCCGA`, the E-score was -0.161.
With `TCACTTCA` the E-score was -0.0862.
With `TGACAGAA` the E-score was -0.00958.
With `AATGCACT` the E-score was -0.0216.
`AAGGGTAA` has an E-score of -0.0159.
`ATACGAAA` gave an E-score of 0.0424.
With `AGAGTTAG` the E-score was 0.0112.

Block 2 — technique: aptamer microarray, sandwich; form: DNA with 2'F-ANA; medium: in vitro; concentration: 200 nM; added: Cy3 exosite-II aptamer, 400 nM; direction: higher = stronger binding; strand: GGTTGGTGTGGTTGG
Target: Prothrombin, mature alpha-thrombin (F2, Homo sapiens, UniProt P00734)
Setting: whole 15-mer aptamer, many near background
Under “mean fluorescence intensity”, `2'F-ANA at 1 2 5 7 12 13 15` is recorded as 93.7 a.u.
`2'F-ANA at 5 7 10 11 15` — result for “mean fluorescence intensity”: 48.2 a.u.
Under “mean fluorescence intensity”, `2'F-ANA at 1 2 5 10 11 12` is recorded as 46.8 a.u.
`2'F-ANA at 1 4 5 7 8 10 15`: “mean fluorescence intensity” 50.9 a.u.
For `2'F-ANA at 1 2 3 4 5 8 11 12 13 15`, “mean fluorescence intensity” read 85.8 a.u.
`2'F-ANA at 1 2 4 6 7 9 14 15` — result for “mean fluorescence intensity”: 51 a.u.
`2'F-ANA at 1 4 7 10 11 12 13 14 15`: “mean fluorescence intensity” 55.6 a.u.
`2'F-ANA at 4 6 7 8 9 10 11 12 15`: “mean fluorescence intensity” 95.5 a.u.
For `2'F-ANA at 2 3 4 5 6 7 8 9 12 14 15`, “mean fluorescence intensity” read 61.9 a.u.
`2'F-ANA at 5 6 7 8 9 10 12 15` — result for “mean fluorescence intensity”: 52.8 a.u.
`2'F-ANA at 1 2 3 6 7 8 9 11 15`: “mean fluorescence intensity” 183 a.u.
`2'F-ANA at 1 4 5 6 8 9 11 12`: “mean fluorescence intensity” 97.5 a.u.

Block 3 — technique: RNA Bind-n-Seq; form: RNA; medium: in vitro; concentration: 365 nM; baseline: no-protein control; direction: higher = stronger binding
Target: RNA binding protein fox-1 homolog 2, RRM domain, GST-SBP tag (RBFOX2, Homo sapiens, UniProt O43251-10, residues 100-194)
Setting: natural RNA segment, single round, ends assumed
Shared flanks, not repeated: GGGAGUUCUACAGUCCGACGAUC … UGGAAUUCUCGGGUGCCAA
Construct (chain): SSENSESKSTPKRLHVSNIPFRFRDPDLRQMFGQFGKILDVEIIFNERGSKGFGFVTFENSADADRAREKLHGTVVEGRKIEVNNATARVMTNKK
`AUCCUCUGCUGCCCGGGGCAUUGGAGCCCCUGUGCUAGGAAGCUGUCAGUUUUGAGUAUCAUUGGCCCUUUCCAGCACAUGGGUGAGAAAACAGGCCACGACUUGUCACU`: “RBNS enrichment (R)” 0.369.
For `CCUUUGUGCUCCACUUAAACCAGAUGUGUUGCAGCUUUCCUGACAUGCAAGGAUCUACUUUAAUUCCACACUCUCAUUAAUAAAUUGAAUAAAAGGGAAUGUUUUGGCAC`, “RBNS enrichment (R)” read 0.35.
`ACUCGGUUCACUUCAGACUACGUGAUUGGAAGUCAUUCCUCGGUUGCACUAGCCACACAAAAUGCUCAGUCACCAUCCCCCGGGCACCGAGGGUUAAGCUGGUUUAGCAG`: “RBNS enrichment (R)” 0.143.
`AGUAAUGCAUAAACUGUCAGAAUCGGGACCUUAUCGUUGAGGUGAAAAGAACCAAGGCCCGUAGGAACAAGGUGCUAUGAAUCUGAAACCAAGAGAAACCUCAGUUUGGC` — result for “RBNS enrichment (R)”: 0.772.
`GGGGGCGUUUAUUCAGUCUUAGAGCCACUCGGAAUGGCUGGCCACAGUCUGAGCUGACUCCCUUCAGUGUGACCCCACUGUGUGGUUCCAUGGUCUUCGAUGUGGUUUUC`: “RBNS enrichment (R)” 0.261.
For `ACCUUGUGCAACGUUCCCCAACACUUCCACAUACAGAAAUUAUUUUCACUCUAUCCCUGCUUCAGUUUUUGCAGAUUAACAGUUCUAUUAGUGAUUUGGAAAGUUAACAG`, “RBNS enrichment (R)” read 0.359.
For `CAACAAAUAUCUUGUGUUGUCCUUUUGUCUUCUCUGUCUCAGACUUUUGUACAUCUGGCUUAUUUUAAUGUGAUGAUGUAAUUGACGGUUUUUUAUUAUUGUGGUAGGCC`, “RBNS enrichment (R)” read 0.796.
`GGCAGCGCCUGCUCUUCCUUAACUCAGCCCAUCAUCUGAAAAUUCAGAAGUGAACCAAGGGUUAGACGCCAGAGGUUGGGCUUCUGUUAGAGUGGCUUCAAAACAUGAGC`: “RBNS enrichment (R)” 0.317.

Block 4 — technique: RNA Bind-n-Seq; form: RNA; medium: in vitro; concentration: 1 µM; setting: whole 134-nt RNA, ends assumed; added: 150 mM KCl; baseline: input library; direction: higher = stronger binding
Target: Ras GTPase-activating protein-binding protein 1, C-terminal RGG region (G3BP1, Homo sapiens, UniProt Q13283)
UniProt Q13283, sequence (whole entry, looked up): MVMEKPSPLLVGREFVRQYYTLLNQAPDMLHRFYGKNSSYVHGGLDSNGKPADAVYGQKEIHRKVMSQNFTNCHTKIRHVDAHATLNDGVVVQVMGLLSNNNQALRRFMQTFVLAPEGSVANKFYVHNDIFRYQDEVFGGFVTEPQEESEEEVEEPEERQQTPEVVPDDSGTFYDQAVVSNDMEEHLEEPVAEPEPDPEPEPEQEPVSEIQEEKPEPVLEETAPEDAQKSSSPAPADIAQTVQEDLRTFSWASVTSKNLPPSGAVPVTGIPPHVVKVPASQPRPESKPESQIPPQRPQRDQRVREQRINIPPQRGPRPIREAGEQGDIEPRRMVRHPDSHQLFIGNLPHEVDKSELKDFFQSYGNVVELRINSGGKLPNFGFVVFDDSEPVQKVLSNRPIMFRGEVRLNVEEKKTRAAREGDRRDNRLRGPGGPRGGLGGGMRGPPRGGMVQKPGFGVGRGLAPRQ
Shared flanks, not repeated: GGGAGUUCUACAGUCCGACGAUC … UGGAAUUCUCGGGUGUCAAGG
`UGGCACUGGUGGCAUGCGGGGAGGAAGAGGUGGCCUCAUGGAUCGUGGUGGUCCCGGUGGAAUGUUCAGAGGUGGCCGUGGUGGAGACAG` gave a log2 enrichment of 1.67.
For `AGUCCUGUGCUACACAUCGUAUGUACCGAAUCAAACCCCCAAACCCAAAUUUUUAAAAAAGUAUUAUGUUACGCCGUUCGGAUCUGCACU`, the log2 enrichment was -0.868.
`UGGGGUCUGCGUACGCCUGGAGUCCUUCCCCGCUGUGCUCAGCAUGGACCCUAUCCGGAGCUUCUGCGGGAAGCUGCGGUCUCUGGCCAG` has a log2 enrichment of -0.523.
With `AAGUCCUGUGCUACACAUCGUAUGUACCGAAUCGGUUUUUGGAAAAAGGUUUUUGGAAAGUAUUAUGUUACGCCGUUCGGAUCUGCACUU` the log2 enrichment was -2.22.
For `UGGCCCUGGUGGGAUGCGGGGAGGAAGAGGUGGCCUCAUGGAUCGUGGUGGUCCCGGUGGAAUGUUCAGAGGUGGCCGUGGUGGAGACAG`, the log2 enrichment was 1.99.
The log2 enrichment of `AAGUCCUGUGCUACACAUCGUAUGUACCGAAUCGGGGCCCCGGCCCCGGGGCCCCGGAAAGUAUUAUGUUACGCCGUUCGGAUCUGCACU` is reported as -2.54.
`AGUCCUGUGCUACACAUCGUAUGUACCGAAUCGGGGUUUGGGGAAAGGGGUUUGGGGAAAGUAUUAUGUUACGCCGUUCGGAUCUGCACU` has a log2 enrichment of 3.32.

Single results of other studies
`PhoQ, residues 284 288 289 292 302 303 SLANIV` gave a fold induction of 3.14 (PhoP, residues 12 14 15 18 19 QWHVF (Escherichia coli, UniProt P23836); Sort-seq, measured: YFP reporter; E. coli; PhoQ-PhoP variant library, added: 10 µM Mg2+; baseline: high Mg2+ state, higher = stronger signaling).

A few entries again (block 1):
The E-score of `CCGCACGC` is reported as 0.192.
With `ACTTGTGG` the E-score was -0.0687.
`CCTAACGC` gave an E-score of 0.0295.
